Results of several laboratories.
Protocols differ between the studies behind these lines. “And” joins repeats or separate records; there may be more than shown. ± marks the error that the study gave.

CC=CC1CCC(C2CCC(CCC)CC2)CC1 (centres unmarked)
fetal accumulation (rat, fetus; 5000 ng/mL in perfusate, high dose, mixture of 21 LCMs): 1.29 ± 1.09 ng/g

CCc1c(-c2ccccc2)c(-c2ccccc2)nn1-c1ccccc1-c1cccc(OCC(=O)O)c1
Tlag (Sprague-Dawley rat; oral, dose not given): 0 h

C=CC(=O)Nc1cc(Nc2nccc(-c3cn(C)c4ccccc34)n2)c(OC)cc1N(C)CCN(C)C
recovery (storage stability; human plasma; 5 h, on ice, LLOQ level): 95.6%

CNC(=O)c1cccc(-c2ccc([C@@H](O)[C@H]3O[C@H](CO)[C@@H](O)[C@H](O)[C@@H]3O)c(C)c2)c1
Vss (Sprague-Dawley rat, male, plasma; intravenous, 3 mg/kg): 0.759 L/kg and 0.881 L/kg and 0.583 L/kg

O=C(O)CCC(=O)O.[2H]C([2H])([2H])Oc1cc(C)c2[nH]ccc2c1CN1CC[C@@H](C2CC2)C[C@H]1c1ccc(C(=O)O)cc1
TEAE urinary sediment detected (healthy Chinese subjects; 200 mg, single ascending dose): 0%

Cc1cc(Nc2ncnc3ccc(NC4=NC(C)(C)CO4)cc23)ccc1Oc1ccn2ncnc2c1
AUC(0-last), geometric mean (human, plasma; oral, 300 mg, day 1, single dose alone): 2000 ng·h/mL

Cc1cc(O)c2c(c1)C(=O)c1cccc(O)c1C2=O
viability (HK-2 co-cultured with HepaRG; MTT; 66.67 µM, 48 h; baseline: untreated control): 56.9 ± 16.7%

COc1ccc2c(c1)CN(C(=O)CCN1CCC(Cc3ccccc3)CC1)CC[S@@+]2[O-]
QT interval (telemetry; conscious male beagle dogs; intravenous, 4 mg/kg, 2 h): 244 ± 17 ms

Cn1cc(Nc2nccc(-c3ccc4c(c3)CN(C3COC3)CC[C@H]4NC(=O)c3cn(C(C)(C)C)nn3)n2)cn1
percent change from baseline (measured: B cell count; human, clinical trial, whole blood; 50 mg twice daily, follow-up): -9.07%

O=C(Nc1nc2cccc(-c3ccc(CN4CCS(=O)(=O)CC4)cc3)n2n1)C1CC1
treatment-emergent adverse events (measured: ankle fracture; human rheumatoid arthritis patients; oral, 300 mg once daily, 4 weeks, regardless of relatedness): 5%

COc1cc(N2CCC3(CCN(C)CC3)CC2)ccc1Nc1ncc(Cl)c(Nc2ccccc2P(C)(C)=O)n1
Ka (population PK model; human; oral, final model): 1.06 h⁻¹

NC1(C(=O)N[C@@H](CCO)c2ccc(Cl)cc2)CCN(c2nc[nH]c3nccc2-3)CC1
incidence of Blindness (metastatic CRPC patients; dose not given, any grade, treatment-related, all doses, together with: enzalutamide 160 mg daily): 6.7%

CN(CCC#N)C1CCN(C(=O)Cn2cc(NC(=O)c3cnn4cccnc34)c(-c3cc(Cl)ccc3OC(F)F)n2)CC1
capsule residue (human; inhalation, 1 mg single dose; baseline: loaded dose): 15.5%

CCc1nc(C(N)=O)c(Nc2ccc(N3CCC(N4CCN(C)CC4)CC3)c(OC)c2)nc1NC1CCOCC1
AUC(0-24) (Japanese patients, plasma; oral, 80 mg, cycle 0 day -2, single dose, median): 1040 ng·h/mL

CCN1CCN(Cc2ccc(NC(=O)c3ccc(C)c(NC(=O)c4cncc(-c5cccs5)c4)c3)cc2C(F)(F)F)CC1
plasma concentration (LC-MS/MS; C57BL/6 mouse, plasma; intraperitoneal, 10 mg/kg single dose, 4 h): 94 ng/mL and 86 ng/mL and 91 ng/mL

Cc1nc2cccc(OCC(C)(C)C(=O)NC(C)C)c2c(N)c1C(=O)O
micronucleated polychromatic erythrocytes (male Swiss albino CD-1 mouse, bone marrow; oral, 2000 mg/kg, 48 h): 0.09%

N#Cc1ccc(-c2cnc3ccc(-c4ccc(C(=O)N5CCOCC5)cc4)cn23)cc1
change in heart rate (healthy human volunteers; oral, 10 mg, fed, time-averaged; baseline: placebo and baseline): 2.4 bpm

CCC(C)n1ncn(-c2ccc(N3CCN(c4ccc(OCC5COC(Cn6cncn6)(c6ccc(Cl)cc6Cl)O5)cc4)CC3)cc2)c1=O (centres unmarked)
adverse event incidence (measured: oropharyngeal pain; healthy human participants; oral, 200 mg, compound alone cohort): 0%

OC[C@H]1O[C@@H](c2ccc(Cl)c(Cc3ccc(O[C@H]4CCOC4)cc3)c2)[C@H](O)[C@@H](O)[C@@H]1O
change in Potassium (Japanese type 1 diabetes patients, blood; 25 mg, day 28; baseline: baseline): -0.1 mEq/L

Cc1ccc([C@@H]2O[C@H](CO)[C@@H](O)[C@H](O)[C@H]2O)cc1Cc1ccc(-c2ccc(F)cc2)s1
trough concentration (human, maintenance hemodialysis patients; oral, 100 mg once daily, steady state, mean): 151 µg/L

CO[C@H]1C[C@@H]2CC[C@@H](C)[C@@](O)(O2)C(=O)C(=O)N2CCCC[C@H]2C(=O)O[C@H]([C@H](C)C[C@@H]2CC[C@@H](OC(=O)NCCOCCOCCOCCOCCOCCOCCOCCOCCC(=O)N3CCc4cc(Cn5nc(-c6ccc7oc(N)nc7c6)c6c(N)ncnc65)ccc4C3)[C@H](OC)C2)C[C@@H](O)[C@H](C)/C=C(\C)[C@@H](O)[C@@H](OC)C(=O)[C@H](C)C[C@H](C)/C=C/C=C/C=C/1C
AUClast (human patients, plasma; intravenous, 1.6 mg, cycle 1 day 15, weekly dosing): 98.6 ng·h/mL

CCN1/C(=C/C(C)=O)Sc2ccc(F)cc21
diastolic blood pressure change (cynomolgus monkey; oral, 30 mg/kg, 6 h post-dose; baseline: pre-dose): 101 ± 1.3%

N[C@@H](C[18F])C(=O)O
radiochemical purity (radio-TLC; mouse serum; 2 h): ≥ 93%

CN1C[C@H](COc2nccc3c(NCc4ccco4)cc(Cl)nc23)OC1=O
LV dP/dt max (Langendorff heart; rabbit, isolated heart; concentration not given, positive if change >2 SD): negative

C=CC(=O)Nc1cc(Nc2nccc(-c3cn(C4CC4)c4ccccc34)n2)c(OC)cc1N(C)CCN(C)C
creatinine (BALB/c nude mice, LU0387 xenograft, serum; oral, 40 mg/kg): 4.68 ± 0.436 µmol/L

C=CC(=O)N1CCC(c2ccc(C(N)=O)c(-c3ccc(Oc4ccccc4)cc3)n2)CC1
incidence of grade ≥3 TRAEs (CTCAE 4.03; patients with relapsed/refractory MCL; oral, 150 mg once daily): 12.5%

CC(C)(C(=O)N1CCOc2c(C#N)cncc2C1)C(F)F
subjects with presyncope TEAE (human, both sexes; oral, 40 mg single dose): 0%

CC[C@H](C)[C@H](NC(=O)[C@H](CO)NC(=O)[C@H](CCCNC(=N)N)NC(C)=O)C(=O)N[C@H]1CSSC[C@@H](C(=O)N[C@H](C(N)=O)[C@@H](C)O)NC(=O)[C@H](CCCNC(=N)N)NC(=O)[C@H](Cc2c[nH]cn2)NC(=O)[C@H](C)NC(=O)CNC(=O)[C@H](Cc2c[nH]c3ccccc23)NC(=O)[C@H](CC(=O)O)NC(=O)[C@H](CCC(N)=O)NC(=O)[C@H](Cc2c[nH]c3ccccc23)NC(=O)[C@H](C(C)C)NC1=O
retention factor (RP-HPLC, C18; 28% acetonitrile isocratic; pH 7.4): 1.348 ± 0.009

CNC(=O)c1ccc(-c2cnc3ncc(Cc4ccc5ncccc5c4)n3n2)cc1F
patients with adverse event (measured: Insomnia, all grades; cancer patients; oral, 600 mg twice daily, other expansion cohort, any causality): 6%

O=c1cc(CO)occ1[O-].[Cl-].[W+4].c1cc[cH-]c1.c1cc[cH-]c1
oxidation potential (cyclic voltammetry; baseline: Ag/AgCl): 581 mV

N#C[C@@]1(c2ccc3c(N)ncnn23)O[C@H](CO)[C@@H](O)[C@H]1O
bound fraction (plasma protein binding; rat plasma; 100 µM): 0.0655

C=C(NC(=O)c1nccc(OC)c1O)C(=O)O[C@@H](C)[C@H](O)[C@@H](Cc1ccccc1)C(=O)O
share of TRR (lactating goat, female, kidney; oral, 21.3 mg/kg bw/day, 5 days): 11 % TRR

CCCS(=O)(=O)Nc1ccc(F)c(C(=O)c2c[nH]c3ncc(-c4ccc(Cl)cc4)cc23)c1F
dose-adjusted solubility (FaSSIF; literature solubility over dose): 5.63e-06 mL⁻¹

CCCCOc1nc(N)c2c(n1)N(Cc1cccc(CN3CCCC3)c1)CC(=O)N2
serious TEAE (human; oral, 2 mg, drug interaction trial): 0%

COc1cccc(OC)c1-c1cc(C(=O)NC2(C(=O)O)C3CC4CC(C3)CC2C4)nn1-c1ccc(C(=O)N(C)CCCN(C)CCCN(C)C(=O)CN2CCN(CC(=O)[O-])CCN(CC(=O)[O-])CCN(CC(=O)[O-])CC2)cc1C(C)C.[177Lu+3] (centres unmarked)
tumour-to-kidney ratio (mouse, HT-29 xenograft; 24 h post injection, biodistribution; baseline: tumour over kidney uptake): 17.1

CCOc1c([C@H](C)n2nc(C)c3c(N)ncnc32)cc(Cl)c(F)c1[C@@H]1CNC(=O)C1
Vz/F per body weight (LC-MS/MS; Japanese patients, plasma; oral, dose not given, steady state, cycle 1 day 15): 0.53 L/kg

COc1cc2c3c(n(CCCN4CCOCC4)c(=O)c2cc1OC)-c1cc2c(cc1C3=O)OCO2
Vz (beagle dog, female, plasma; intravenous infusion, 50 mg/m^2, 1 h infusion, vehicle 2): 542 ± 213 L/m²

N#Cc1ccc2c(c1)[C@H]1CCCN(C(=O)c3ccc4[nH]cnc4c3)[C@H]1C2
SHBG level (human females; 10 mg, day 7): 28 nmol/L

Cl.[2H]C([2H])([2H])CC(=O)c1cnc(NC(=O)C2CC2)cc1Nc1cccc(-c2ncn(C([2H])([2H])[2H])n2)c1OC
AUC(0-tau) (geometric mean; human; oral, 10 mg once daily, day 1, fasted, liquid, multiple dose): 701 ng·h/mL

O=S(=O)(c1ccc(-c2ccc3nccc(Nc4ccncn4)c3c2)cc1)N1CCOCC1
brain concentration (female BALB/c mice, brain; intraperitoneal, 10 mg/kg, 0.25 h, mean): 181 ng/g

CCc1cc(C(=O)NC)c2nccc(N3CCc4c(cc(Cn5ccnc5)cc4-c4cn(C)nc4C(F)(F)F)C3=O)c2c1
serum MCHC change (Sprague Dawley rats; oral, 50 mg/kg once daily, 7 days; baseline: vehicle): 0.33%

Cc1ccc(Sc2ccccc2N2CCNCC2)c(C)c1
participants with TEAE (measured: Somnolence; healthy adult women; oral, 10 mg daily, 12 days): 16.7%

CCOc1c([C@H](C)n2nc(C)c3c(N)ncnc32)cc(Cl)c(F)c1[C@@H]1CNC(=O)C1
ECG observations (measured: QRS ≤100 ms; previously treated B-cell malignancy; oral, 30 mg once daily, baseline below thresholds): 96.8%

CO[C@@H]1[C@H](O)[C@@H](CO)O[C@H]1n1c([N+](=O)[O-])nc2c(=O)[nH]c(N)nc21
depurination half-life (citrate phosphate buffer; 0.5 mM, pH 5.00, 37 °C): 26.4 h

COc1cc(O)c2c(c1)C(=O)c1cc(C)cc(O)c1C2=O
viability (HK-2 co-cultured with HepaRG; MTT; 66.67 µM, 48 h; baseline: untreated control): 91.2 ± 13.8%

O=C1NCCc2nc(OCc3cccc(F)c3)ccc21
Irwin test score (measured: loss of Grasping; Sprague-Dawley rat male; oral, 100 mg/kg, 0 min; baseline: baseline, direction not given): 0.2

C[C@@H](Nc1cc(F)cc(F)c1)c1cc(C(=O)N(C)C)cc2c(=O)cc(N3CCOCC3)oc12
share of patients with dose interruption (patients with advanced solid tumours; oral, 240 mg twice daily, monotherapy dose-finding, 2:5 schedule): 25%

O=C(c1nc2n(n1)[C@H](c1ccccc1)C[C@@H]2F)C1CC1
urinary excretion Ae(0-72 h) (human, fasted; oral, 75 mg single dose, mean): 0.142 mg

CC[C@H](C)[C@H](N)C(=O)N[C@H]1CSSC[C@@H](C(=O)N[C@H](C(N)=O)[C@@H](C)O)NC(=O)[C@H](CCCNC(=N)N)NC(=O)[C@H](Cc2c[nH]cn2)NC(=O)[C@H](Cc2c[nH]cn2)NC(=O)CNC(=O)[C@H](Cc2c[nH]c3ccccc23)NC(=O)[C@H](CC(=O)O)NC(=O)[C@H](CCC(N)=O)NC(=O)[C@H](C(C)C)NC(=O)[C@H](C(C)C)NC1=O
retention factor (RP-HPLC, C18; 28% acetonitrile isocratic; pH 7.4): 0.812 ± 0.013

C=CCN1CC(=O)N2[C@@H](Cc3ccc(O)cc3F)C(=O)N(Cc3cccc(N4CC(N5CCN(CC)CC5)C4)n3)C[C@@H]2N1C(=O)NCc1ccccc1
treatment-related adverse events (measured: decreased appetite; human advanced solid tumours; concentration not given, expansion any grade): 10.5%

Excerpt of the above:
COc1ccc2c(c1)CN(C(=O)CCN1CCC(Cc3ccccc3)CC1)CC[S@@+]2[O-]
QT interval (telemetry; conscious male beagle dogs; intravenous, 4 mg/kg, 2 h): 244 ± 17 ms

Cn1cc(Nc2nccc(-c3ccc4c(c3)CN(C3COC3)CC[C@H]4NC(=O)c3cn(C(C)(C)C)nn3)n2)cn1
percent change from baseline (measured: B cell count; human, clinical trial, whole blood; 50 mg twice daily, follow-up): -9.07%

O=C(Nc1nc2cccc(-c3ccc(CN4CCS(=O)(=O)CC4)cc3)n2n1)C1CC1
treatment-emergent adverse events (measured: ankle fracture; human rheumatoid arthritis patients; oral, 300 mg once daily, 4 weeks, regardless of relatedness): 5%

COc1cc(N2CCC3(CCN(C)CC3)CC2)ccc1Nc1ncc(Cl)c(Nc2ccccc2P(C)(C)=O)n1
Ka (population PK model; human; oral, final model): 1.06 h⁻¹

NC1(C(=O)N[C@@H](CCO)c2ccc(Cl)cc2)CCN(c2nc[nH]c3nccc2-3)CC1
incidence of Blindness (metastatic CRPC patients; dose not given, any grade, treatment-related, all doses, together with: enzalutamide 160 mg daily): 6.7%
